Published values of several laboratories.
“And” joins repeats or separate records; there may be more than shown. Numbers after ± are the reported error.

Compound | assay | test system | conditions | scale | measurement | value
COC1CN([C@H]2CC[C@H]([C@@]3(C)Oc4c(Cl)cc(C(=O)NCc5c(SC)cc(C)[nH]c5=O)c(C)c4O3)CC2)C1 | RNA-seq, measured: FMNL2 mouse homolog | mouse, HT-1376 xenograft, whole blood | dose not given | baseline: vehicle | log2 fold change | 0.389
COc1cc2c(NC3CCN(C(C)C)CC3)cc(N3CCOCC3)nc2cc1OCCCN1CCCC1 | TMT proteomics, measured: GMFB | 5xFAD mice, hippocampus | dose not given, unit not given | baseline: untreated 5xFAD | protein level difference | -0.0185
COC1OC(C)C(OC2OC(C)C(OS(=O)(=O)O)C(OC3OC(C)C(OC4OC(C)C(OS(=O)(=O)O)C(OC5OC(C)C(OC6OC(C)C(OS(=O)(=O)O)C(OC7OC(C)C(OS(=O)(=O)O)C(OS(=O)(=O)O)C7OS(=O)(=O)O)C6OS(=O)(=O)O)C(OS(=O)(=O)O)C5OS(=O)(=O)O)C4OS(=O)(=O)O)C(OS(=O)(=O)O)C3OS(=O)(=O)O)C2OS(=O)(=O)O)C(OS(=O)(=O)O)C1OS(=O)(=O)O (stereo not drawn) | – | human plasma | 32 µg/mL | – | activated partial thromboplastin time | 132 s and 141 s and 134 s
O=C(CCC(F)(F)F)Nc1ccc([C@H]2[C@@H](F)[C@@H](F)C[C@@H](F)[C@H]2F)cc1 | hepatocyte stability | cryopreserved mouse hepatocytes | 1 µM | – | hepatic clearance | 80 mL/min/kg
CCCCCc1ccc(S(=O)(=O)N2CC2C(=O)OC)cc1 (stereo not drawn) | – | mouse, Lewis lung carcinoma | intraperitoneal, 5 mg/kg, 16 doses, day 14 | – | tumour volume | 481 mm3
Cc1ccc(N(O)/N=N/c2ccc(S(=O)(=O)Nc3nccs3)cc2)cc1 | ABTS scavenging | – | 120 µg/mL | – | inhibition | 55%
Nc1nc2cc(CC[C@H]3C[C@@H](n4ccc5c(N)ncnc54)[C@H](O)[C@@H]3O)ccc2cc1Br | – | NCI-H520 xenograft, mouse | 1.0 mg/kg/day, day 27 | – | %ΔTGI | 60.7%
COC1OC(C)C(OC2OC(C)C(OS(=O)(=O)O)C(OC3OC(C)C(OC4OC(C)C(OS(=O)(=O)O)C(OC5OC(C)C(OC6OC(C)C(OS(=O)(=O)O)C(OS(=O)(=O)O)C6O)C(OS(=O)(=O)O)C5O)C4O)C(OS(=O)(=O)O)C3O)C2O)C(OS(=O)(=O)O)C1O (stereo not drawn) | – | human plasma | 128 µg/mL | – | activated partial thromboplastin time | 37.6 ± 0.4 s
COc1ccc(NC(=O)c2ccc3[nH]c(-c4ccc(N(C)C)cc4)nc3c2)cn1 | – | CT26, BALB/c nude mice, subcutaneous graft | dose not given, day 7 | – | tumour volume | 422 mm3 and 1840 mm3 and 892 mm3 and 450 mm3 and 477 mm3
CN1CCC[C@]1(C)/C=C/S(=O)(=O)NC(=O)Nc1c2c(cc3c1CCC3)CCC2 | IL-18 release | human, whole blood ex vivo | oral, 12.5 mg twice daily, day 14, 336 h, multiple ascending dose, together with: LPS and ATP | – | inhibition | 86.8%
O=C1CCC(N2Cc3c(ccc(C(=O)O)c3F)C2=O)C(=O)N1 (stereo not drawn) | deuterium-hydrogen exchange | aqueous phosphate buffer | pH 7.4, 37 °C | – | exchange rate constant | -0.037 h⁻¹
COC1OC(C)C(OC2OC(C)C(O)C(OC3OC(C)C(OC4OC(C)C(O)C(OC5OC(C)C(OC6OC(C)C(O)C(OC7OC(C)C(OC8OC(C)C(O)C(OC9OC(C)C(OC%10OC(C)C(O)C(OC%11OC(C)C(OC%12OC(C)C(O)C(OS(=O)(=O)O)C%12OS(=O)(=O)O)C(OS(=O)(=O)O)C%11OS(=O)(=O)O)C%10OS(=O)(=O)O)C(OS(=O)(=O)O)C9OS(=O)(=O)O)C8OS(=O)(=O)O)C(OS(=O)(=O)O)C7OS(=O)(=O)O)C6OS(=O)(=O)O)C(OS(=O)(=O)O)C5OS(=O)(=O)O)C4OS(=O)(=O)O)C(OS(=O)(=O)O)C3OS(=O)(=O)O)C2OS(=O)(=O)O)C(OS(=O)(=O)O)C1OS(=O)(=O)O (stereo not drawn) | – | human plasma | 32 µg/mL | – | activated partial thromboplastin time | 67.9 s and 67.7 s
O=C(Nc1ccc([C@H]2[C@@H](F)[C@@H](F)C[C@@H](F)[C@H]2F)cc1)C1(N2CCOCC2)CC1 | liver microsome stability | cynomolgus liver microsomes | 1 µM | – | hepatic clearance | 36 mL/min/kg
NC[C@@H](C(=O)Nc1ccc(-c2cn[nH]c2)cc1)c1ccccc1 | tonometry | NZW rabbit, magnetic bead-induced ocular hypertension | ocular, 0.03%, 30 h | – | IOP | 30.3 mmHg
COc1cc(O)ccc1CCC(c1ccc(O)cc1)c1cc2c(c(C)c1O)OC(c1ccc(O)cc1)CC2 (mixture of isomers) | – | human blood | 10 µM, together with: A23187 | – | TXB2 level | 767 ± 254 pg/mL
COc1cc(N2CCN(C(=O)C3CCCN3)CC2)ccc1Nc1ncc(Cl)c(Nc2ccccc2P(C)(C)=O)n1 (stereo not drawn) | – | nude mice, NCI-H3122 xenograft | intraperitoneal, 10 mg/kg every other day, day 15 | – | tumour volume | 101 mm3 and 90.9 mm3 and 55.8 mm3 and 131 mm3 and 82.3 mm3
COC1OC(C)C(OC2OC(C)C(OS(=O)(=O)O)C(OC3OC(C)C(OC4OC(C)C(OS(=O)(=O)O)C(OS(=O)(=O)O)C4O)C(OS(=O)(=O)O)C3O)C2O)C(OS(=O)(=O)O)C1O (stereo not drawn) | – | human plasma | 128 µg/mL | – | activated partial thromboplastin time | 33.6 ± 0.2 s
CCCCCCCCCCCCCCCC(=O)OCC(CSC[C@H](N)C(=O)N[C@@H](CO)C(=O)N[C@@H](CCCCN)C(=O)N[C@@H](CCCCN)C(=O)N[C@@H](CCCCN)C(=O)N[C@@H](CCCCN)C(=O)NCCCCCC(=O)N[C@@H](CCCCN)C(=O)N[C@@H](CC(C)C)C(=O)N[C@H](C(=O)N[C@@H](Cc1ccccc1)C(=O)N[C@@H](Cc1ccccc1)C(=O)N[C@@H](Cc1ccc2ccccc2c1)C(=O)O)C(C)C)OC(=O)CCCCCCCCCCCCCCC (stereo partly drawn) | OC antibody staining | APP/PS1 transgenic mouse, cortex | intracortical injection, dose not given, 5 d | – | OC-positive area | 10.7% and 22.8% and 11% and 14.2%
COC1OC(C)C(OC2OC(C)C(O)C(OC3OC(C)C(OC4OC(C)C(O)C(OC5OC(C)C(OC6OC(C)C(O)C(OS(=O)(=O)O)C6OS(=O)(=O)O)C(OS(=O)(=O)O)C5OS(=O)(=O)O)C4OS(=O)(=O)O)C(OS(=O)(=O)O)C3OS(=O)(=O)O)C2OS(=O)(=O)O)C(OS(=O)(=O)O)C1OS(=O)(=O)O (stereo not drawn) | – | human plasma | 128 µg/mL | – | activated partial thromboplastin time | 118 ± 1.8 s
COCC1CN(C2CCN(c3cc(OC)c(Nc4ncc(Br)c(Nc5ccc6c(c5P(C)(C)=O)OCCO6)n4)cc3C)CC2)C1 | RECIST 1.1 | advanced EGFR-mutant NSCLC patients | 150 mg once daily | – | disease control rate | 33.3%
CC(C)C[C@H](NC(=O)CNC(=O)[C@H](CCC(N)=O)NC(=O)[C@H](CC(C)C)NC(=O)[C@H](CC(C)C)NC(=O)[C@H](CCCNC(=N)N)NC(=O)[C@H](CCC(N)=O)NC(=O)[C@H](CC(C)C)NC(=O)[C@H](CCCNC(=N)N)NC(=O)[C@H](C)NC(=O)CNC(=O)[C@H](CCC(=O)O)NC(=O)[C@H](CCCNC(=N)N)NC(=O)[C@H](CC(C)C)NC(=O)[C@H](CCCNC(=N)N)NC(=O)[C@H](CO)NC(=O)[C@H](CC(C)C)NC(=O)[C@H](CCC(=O)O)NC(=O)[C@H](CO)NC(=O)[C@@H](NC(=O)[C@H](Cc1ccccc1)NC(=O)[C@@H](NC(=O)CNC(=O)[C@H](CC(=O)O)NC(=O)C(C)(C)NC(=O)[C@@H](N)Cc1c[nH]cn1)[C@@H](C)O)[C@@H](C)O)C(=O)N[C@@H](CC(C)C)C(=O)N[C@@H](CCC(N)=O)C(=O)NCC(=O)N[C@@H](CC(C)C)C(=O)N[C@H](C(=O)NCC(=O)N[C@@H](CCCCNC(=O)COCCOCCNC(=O)COCCOCCNC(=O)CC[C@H](NC(=O)CCCCCCCCCCCCCCCCC(=O)O)C(=O)O)C(N)=O)C(C)C | quantitative magnetic resonance | DIO C57BL/6J mice | sc, 300 nmol/kg twice daily, day 8 | baseline: vehicle | fat mass loss | 6.6%
COC1OC(C)C(OC2OC(C)C(O)C(OC3OC(C)C(OC4OC(C)C(O)C(OC5OC(C)C(OC6OC(C)C(O)C(OC7OC(C)C(O)C(OS(=O)(=O)O)C7OS(=O)(=O)O)C6OS(=O)(=O)O)C(OS(=O)(=O)O)C5OS(=O)(=O)O)C4OS(=O)(=O)O)C(OS(=O)(=O)O)C3OS(=O)(=O)O)C2OS(=O)(=O)O)C(OS(=O)(=O)O)C1OS(=O)(=O)O (stereo not drawn) | – | human plasma | 64 µg/mL | – | activated partial thromboplastin time | 69.2 s and 67.9 s and 70.3 s
COc1ccc(C(=O)CCc2cc(C(CCc3ccc(O)cc3OC)c3ccc(O)cc3)c(O)cc2OC)cc1 (racemic) | – | human blood | 30 µM, together with: A23187 | – | TXB2 level | 1030 ± 383 pg/mL
COC1OC(C)C(OS(=O)(=O)O)C(OC2OC(C)C(OS(=O)(=O)O)C(OC3OC(C)C(OS(=O)(=O)O)C(OC4OC(C)C(OS(=O)(=O)O)C(OC5OC(C)C(OS(=O)(=O)O)C(OC6OC(C)C(OS(=O)(=O)O)C(OC7OC(C)C(OS(=O)(=O)O)C(OC8OC(C)C(OS(=O)(=O)O)C(OS(=O)(=O)O)C8OS(=O)(=O)O)C7OS(=O)(=O)O)C6OS(=O)(=O)O)C5OS(=O)(=O)O)C4OS(=O)(=O)O)C3OS(=O)(=O)O)C2OS(=O)(=O)O)C1OS(=O)(=O)O (stereo not drawn) | – | human plasma | 16 µg/mL | – | activated partial thromboplastin time | 74.5 s and 75.9 s and 76 s
CN1CCCNC(=O)c2cccc(c2)C(=O)NCCCN(C)CCCNc2cccc3c2C(=O)c2cccc(c2C3=O)NCCC1 | – | SAS xenograft, KSN/Slc nude mice | dose not given, 144 h (day 6), group mean | – | tumour volume | 202 mm3
COC1OC(C)C(OS(=O)(=O)O)C(OC2OC(C)C(OS(=O)(=O)O)C(OC3OC(C)C(OS(=O)(=O)O)C(OC4OC(C)C(OS(=O)(=O)O)C(OC5OC(C)C(OS(=O)(=O)O)C(OC6OC(C)C(OS(=O)(=O)O)C(OC7OC(C)C(OS(=O)(=O)O)C(OS(=O)(=O)O)C7OS(=O)(=O)O)C6OS(=O)(=O)O)C5OS(=O)(=O)O)C4OS(=O)(=O)O)C3OS(=O)(=O)O)C2OS(=O)(=O)O)C1OS(=O)(=O)O (stereo not drawn) | – | human plasma | 16 µg/mL | – | activated partial thromboplastin time | 59.3 s and 57.5 s and 58.3 s
CC(=O)[O-].O.[Cu+2].[O-]c1ccc(Br)cc1C=NCCN1CCOCC1 | DPPH radical scavenging | – | 200 µM | – | inhibition | 65.5%

Repeated from above:
Compound | assay | test system | conditions | scale | measurement | value
COc1cc2c(NC3CCN(C(C)C)CC3)cc(N3CCOCC3)nc2cc1OCCCN1CCCC1 | TMT proteomics, measured: GMFB | 5xFAD mice, hippocampus | dose not given, unit not given | baseline: untreated 5xFAD | protein level difference | -0.0185
COC1OC(C)C(OC2OC(C)C(OS(=O)(=O)O)C(OC3OC(C)C(OC4OC(C)C(OS(=O)(=O)O)C(OC5OC(C)C(OC6OC(C)C(OS(=O)(=O)O)C(OC7OC(C)C(OS(=O)(=O)O)C(OS(=O)(=O)O)C7OS(=O)(=O)O)C6OS(=O)(=O)O)C(OS(=O)(=O)O)C5OS(=O)(=O)O)C4OS(=O)(=O)O)C(OS(=O)(=O)O)C3OS(=O)(=O)O)C2OS(=O)(=O)O)C(OS(=O)(=O)O)C1OS(=O)(=O)O (stereo not drawn) | – | human plasma | 32 µg/mL | – | activated partial thromboplastin time | 132 s and 141 s and 134 s
O=C(CCC(F)(F)F)Nc1ccc([C@H]2[C@@H](F)[C@@H](F)C[C@@H](F)[C@H]2F)cc1 | hepatocyte stability | cryopreserved mouse hepatocytes | 1 µM | – | hepatic clearance | 80 mL/min/kg
CCCCCc1ccc(S(=O)(=O)N2CC2C(=O)OC)cc1 (stereo not drawn) | – | mouse, Lewis lung carcinoma | intraperitoneal, 5 mg/kg, 16 doses, day 14 | – | tumour volume | 481 mm3
